Measurements of several laboratories.
Numbered parts are unrelated; each lists some results of a single study.

Block 1 — method: universal PBM; form: double-stranded DNA, one strand shown; medium: in vitro; tested at: not given; direction: higher = stronger binding; measurement: E-score
Target: Sal-like protein 4, full length isoform B (SALL4, Homo sapiens, UniProt Q9UJQ4-2, residues 1-616)
Notes: 8-mer, flanks averaged, mean of replicates
Target sequence (chain): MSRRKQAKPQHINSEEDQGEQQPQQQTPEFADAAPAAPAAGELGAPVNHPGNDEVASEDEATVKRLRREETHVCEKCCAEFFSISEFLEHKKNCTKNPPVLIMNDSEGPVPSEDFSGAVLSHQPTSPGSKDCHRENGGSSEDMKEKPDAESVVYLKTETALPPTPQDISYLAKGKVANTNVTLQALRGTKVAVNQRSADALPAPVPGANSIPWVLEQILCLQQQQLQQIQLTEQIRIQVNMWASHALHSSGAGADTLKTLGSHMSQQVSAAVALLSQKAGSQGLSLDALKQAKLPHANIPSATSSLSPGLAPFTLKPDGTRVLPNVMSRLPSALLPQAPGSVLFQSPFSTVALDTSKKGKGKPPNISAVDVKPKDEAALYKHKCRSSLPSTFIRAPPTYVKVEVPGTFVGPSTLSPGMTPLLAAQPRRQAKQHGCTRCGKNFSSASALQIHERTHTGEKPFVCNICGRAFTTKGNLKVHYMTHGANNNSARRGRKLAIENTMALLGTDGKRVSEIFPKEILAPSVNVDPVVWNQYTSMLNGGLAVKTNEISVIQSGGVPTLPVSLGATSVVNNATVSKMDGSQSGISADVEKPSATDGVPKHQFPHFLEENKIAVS
CGTATCTC: -0.1
TGCGCACA: -0.0299
GGTAACAC: -0.0445
AATGCTAC: 0.188
CTTTCCAC: 0.0245
CATTTACC: 0.171
GTTGTCAA: -0.00388

Block 2 — method: RNA Bind-n-Seq; form: RNA; medium: in vitro; tested at: 365 nM; relative to: no-protein control; direction: higher = stronger binding; measurement: RBNS enrichment (R)
Target: RNA binding protein fox-1 homolog 2, RRM domain, GST-SBP tag (RBFOX2, Homo sapiens, UniProt O43251-10, residues 100-194)
Notes: natural RNA segment, single round, ends assumed
Constant ends, left off below: GGGAGUUCUACAGUCCGACGAUC … UGGAAUUCUCGGGUGCCAA
Target sequence (chain): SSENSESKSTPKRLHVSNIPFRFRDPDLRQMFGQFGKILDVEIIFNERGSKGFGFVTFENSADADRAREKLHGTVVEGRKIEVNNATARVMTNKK
UGUGGCUGACCUGGGCUGCUGGUUCCGUUGACUAGGGUCAUCUUGAUCUCUGCAGUUUGCUCCAGCUACCAGUUUCUUUAGGCAGCUCUUUGUCCUCCCUCUGCCCAGAU: 0.372
GGAUCGCCCCCCCCUUCCCAGUUCUCCAUAUCAGGGUAGAAGAUCUAGGCACUACAUAUGUAAUUGGUAAAGAAAAGGCAUUUUCUUAAGAGUUAUAACUAUGUAAACAU: 0.348
UGUCAGUGGAAACCCCACUUCUGCCCGGCCCUUGAGCUUCUUGCCCACUGUCUCCCCAUCCUUCCACCUACUUGUGGCGAUCUGAGUACUCUACUCUUGCUCAAGAAGUA: 0.526
GUGGAGGGACUGGCACCGGUUAACUCCUGGUAGGUGCCAAAGCCAUGGGCAUACCAAGCCAGAGCCCCAGGGAUAAGCUGGGGGGUCUUGUGGCCUUUAGGACAGUGCUU: 0.5
GCAUCUGGCCCCAGAAGCCUCCUCACCUGGACUGGCACAACUUCGGUUGGGGAAACAGAAGCUGAGGGAGCUUAGAUGGGGUGGGGGAUCCAAGCCCCUCCCAGCCCACC: 0.28
UGCCAAGGUAGAGAACUGUGAGUGACUGUUGGUGUGGUGAAGGGUGUUGACCAUGCAGGGAAGUGGCCAAUGUGCCCACUUCCCAUCUCUUCCUUGCGCAUUGUCAGCAU: 0.63
UGGGUUGGUUCCUAUUACAUGAGCUCUUUUGCAGAUAGCACAUUCAGUAGCCUUAUCCUGUUGGUGGAAUACUGUACCAUAUGCUCCUCCAAAACCCAUGAACACGGCCA: 0.262
AAAUGAUUAGGAUGCCACAGAUGGUACAUCUAGUGGUCCAGAUAGGAUCCCUCCUGAAAUCUCCUACUUCUUGUCUGCCACUCACUCUUGAGGACACUGGGCCCCCAUGG: 0.635
AUCACAUACUCAUUUUACUUGAAAUUAUGUCACUAGACAACUUAUAUUUUGGAGUCUUGAGAUUGUUUUUCUCUUUUCUUAUUAAAUAAUCUUUCUAUAAACCAGCACUA: 0.43
AUAGUGUAUAACCUUGUGUUCAUGAAACAGGUUGUUCAUUGUUCUGCAUCUCUCUUCAUUUAAAAAGGAUACACAAUUCUUUCCUCAUUGCAUAUUACACCAAACGUUUG: 1.2

Block 3 — method: protein-binding microarray; form: double-stranded DNA, one strand shown; medium: in vitro; tested at: 2200 nM top; notes: 60-bp whole probe; together with: salmon DNA 0.4 mg/ml; relative to: random background probes; direction: higher = stronger binding; measurement: fitted relative affinity; constant ends, left off below: GCCTAGCAC … GTCTTGATTCGCTTGACGCTGCTG
Target: Interferon regulatory factor 7, full length, phosphomimetic (IRF7, Homo sapiens, UniProt Q92985, residues 1-503, S471D/S472D/S475D/S476D/S477D/S483D/S484D/S487D)
Construct (chain): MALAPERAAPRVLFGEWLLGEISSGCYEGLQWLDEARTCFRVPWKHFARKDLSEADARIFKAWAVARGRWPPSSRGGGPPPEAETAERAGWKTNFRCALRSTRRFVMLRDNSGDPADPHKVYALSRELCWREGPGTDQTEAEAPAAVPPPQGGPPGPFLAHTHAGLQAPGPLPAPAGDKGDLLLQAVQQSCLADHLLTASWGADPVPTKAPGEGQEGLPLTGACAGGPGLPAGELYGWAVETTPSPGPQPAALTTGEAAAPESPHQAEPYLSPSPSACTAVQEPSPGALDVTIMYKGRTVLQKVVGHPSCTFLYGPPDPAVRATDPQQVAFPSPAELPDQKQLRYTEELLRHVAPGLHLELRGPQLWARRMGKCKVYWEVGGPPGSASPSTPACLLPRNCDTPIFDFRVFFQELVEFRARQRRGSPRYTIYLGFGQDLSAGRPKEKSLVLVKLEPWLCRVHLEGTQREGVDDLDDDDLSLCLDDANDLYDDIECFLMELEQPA
TCATTTTCATTTTCTGAAACTGTGCTA: 6.9 z-score
GACTGACTGCTTATCCTGACGTGCTAG: 0.713 z-score
TCAATTTTTTTTTTCATACTGTGCTAG: 1.44 z-score
GCCGGACTGGACTATCGGGACGTGCTA: -0.981 z-score
TCTTTTTATGCTTTCTTTAAGTGCTAG: 1.74 z-score
GACGGTCTCGGACGGGGGACGTGCTAG: 0.217 z-score
GACGATTTCAGAATGGAGACGTGCTAG: 0.356 z-score
TCACCTCTAGGTTCTCTGACTGTGCTA: 0.72 z-score

Mixed results
PhoQ, residues 284 288 289 292 302 303 NLALSC — fold induction (PhoP, residues 12 14 15 18 19 MHTVL (Escherichia coli, UniProt P23836); Sort-seq, item: YFP reporter; E. coli; PhoQ-PhoP variant library, together with: 10 µM Mg2+; relative to: high Mg2+ state, higher = stronger signaling): 2.07
